Measurements collected from several papers.
Parts stem from different laboratories: compare values within a part only. Substitutions count along the parent as printed.

Sample 1 — target: CCNE2, cyclin fold, Cln2 fusion (human); method: yeast growth competition, sequencing; medium: yeast; notes: strong parent motif; reference: not given; direction: higher = stronger binding; quantity: normalised enrichment score
Parent: E2F2 docking peptide (human); LPAKRKLDLEGIG; partner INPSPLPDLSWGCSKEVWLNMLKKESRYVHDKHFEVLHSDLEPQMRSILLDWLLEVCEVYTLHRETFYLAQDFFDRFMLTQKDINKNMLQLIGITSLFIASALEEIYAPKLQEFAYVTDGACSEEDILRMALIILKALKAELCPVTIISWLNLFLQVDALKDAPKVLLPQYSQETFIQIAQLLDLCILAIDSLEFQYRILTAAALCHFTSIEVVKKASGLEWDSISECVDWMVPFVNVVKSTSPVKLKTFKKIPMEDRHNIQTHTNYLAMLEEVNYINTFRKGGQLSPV
G13A: 1.23
K4A: 0.749
L7A: 0.237
R5A L7A: 0.55
L1A: 1.08
P2A: 0.749
L9A: 0.407
R5K L9F: 2.06

Sample 2 — method: RNA Bind-n-Seq; molecule type: RNA; medium: in vitro; tested at: 100 nM; reference: input RNA pool; direction: higher = stronger binding; quantity: bound/input enrichment
Target: RING finger protein unkempt homolog, zinc fingers 1-6, SBP tag (UNK, Homo sapiens, UniProt Q9C0B0, residues 30-357)
Sequence of UniProt Q9C0B0 (30-357, looked up): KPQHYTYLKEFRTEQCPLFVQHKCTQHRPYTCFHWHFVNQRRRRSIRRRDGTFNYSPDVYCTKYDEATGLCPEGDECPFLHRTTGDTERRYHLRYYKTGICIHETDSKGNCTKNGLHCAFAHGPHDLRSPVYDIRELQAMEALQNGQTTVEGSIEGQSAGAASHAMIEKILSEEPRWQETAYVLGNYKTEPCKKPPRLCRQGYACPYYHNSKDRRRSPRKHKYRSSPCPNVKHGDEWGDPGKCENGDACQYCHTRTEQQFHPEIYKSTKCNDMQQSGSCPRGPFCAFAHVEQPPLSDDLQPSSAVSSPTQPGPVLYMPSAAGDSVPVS
Notes: RNA with constant flanks, vertebrate orthologous sites, ends assumed
Constant ends, left off below: GGGAGUUCUACAGUCCGACGAUC … CAACAGAGGAUUGAGCAUCA
AUGGGAAAUACUCUGGGGAGUGGCUGGACACUUAGCGUUGUUUGAUUUAUGACCUUGACAGUAGAUAGGCUUGUGGGGGUUUUUGUUUUUGUUUUUUAAUUUAAUGAUAUUAAAACUUAA: 0.981 ratio
GCACAUGCCACUGUCACCAAAAAUGAACUACCACUUUCCAAAUUCCAUUCAGAGCCAUUUUAGUGUUUUCCUAUUCCCUACCCCUCCCACUACUUUCAAUGAUGAAAUACCCUAAGUUCU: 2.69 ratio
AUUCAAACCUGUGGUACCAUGGCCUCAUGUUGAAGGAGUAGAAGUGGACUUAGAGUCUAUUAGAAGAAAAAACAAGGCUAAGAAUGAACAAGAGCAUCAUGCUGGAGGAGACUCCCAGAA: 0.478 ratio
UAGGUCUGGGGUAGAAGGGAGGGAAGGGGCAGGAUACGUGAAAUCUCUAGGGUGUAUGGGGAGGUAGGGGGCACAGUUAGUUCUAAGUGGGCUUUUAUGUUACCUUUUGGGACAACAACA: 1.78 ratio
CAUAAUCACUCUAUUGUAAUCUGAAAAAAGUGUAACAUUGUGUAGCCUUUUUGUAUAAAAUAGACAAAUAGAAAUGGUCCAAUUAGUUUCCUUUUUAAUAUGCUUAAAAUAAGCAGGUGA: 1.36 ratio
AUGAUAGAUAAGAAUGUAUAUCAGAUGCUGGAUGUAGAAUGAAACCAUCACUUAGCAUAGGGUUUGUCUGUCAUAACUGAUCUAUAGCUAGGUUUCCUUAAACCAGAGAUGCACUGCCCU: 0.226 ratio
UUGUUUUGUACAGGGCAUUCUCUGUACUAGUUUGUUGUGGUUAUAAAACAAUUAGCAAAACAGCUUACAUUUGUAUUUAUUUUCUAUUCCAUACUCUCCCUGCCCCAUGUUUUCUCUUUC: 0.571 ratio
UGCAAUGCACAACCAUGACCUUGCAUGAUGUGGCUAGACACAGGAGAAAGUUUAAAACAUUACAUCCAAGUUUAACACAUCACAGUGGAACUUCUGUCUCUUUUGUGUUACGUCCAGCCU: 0.37 ratio

Sample 3 — method: RNAcompete; molecule type: RNA; medium: in vitro; tested at: 20 nM; notes: 7-mer, probes averaged, single round; reference: mean of 7-mers; direction: higher = stronger binding; quantity: 7-mer Z-score
Target: PABPC1L2, full length, GST fusion (mouse, UniProt A0ABA7IW68)
Target sequence (chain): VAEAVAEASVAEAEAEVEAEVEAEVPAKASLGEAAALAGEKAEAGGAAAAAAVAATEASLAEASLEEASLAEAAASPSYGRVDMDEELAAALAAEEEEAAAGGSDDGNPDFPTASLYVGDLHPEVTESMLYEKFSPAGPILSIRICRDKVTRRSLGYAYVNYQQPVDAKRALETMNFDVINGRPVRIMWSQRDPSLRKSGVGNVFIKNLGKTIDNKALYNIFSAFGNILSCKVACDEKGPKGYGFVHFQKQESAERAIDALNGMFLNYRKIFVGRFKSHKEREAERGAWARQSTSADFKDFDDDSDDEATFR
UCAUUGU: -0.396
GUGGGUC: -0.0645
UGAACUC: -0.226
CCUAGGC: -0.4
CUACAGG: 0.0623
AGUCUCG: -0.215
GGCCGGA: 0.363
AAGUAUG: 0.225

Single results of other studies
NSRHNAQHK — binding (HLA class I histocompatibility antigen, A alpha chain, allele A*80:01 (Homo sapiens, UniProt P04439); peptide-MHC binding; peptide; concentration not given): inactive
